Measured values pooled from the literature.
Every numbered part comes from another study and shows a few of its results, in no order.

Series 1
Target: Histone acetyltransferase KAT6A, winged helix 2, GST fusion (KAT6A, Homo sapiens, UniProt Q92794, residues 85-181)
Technique: protein binding microarray
Form: double-stranded DNA, one strand shown
Sample: in vitro
Concentration: not given
Setting: 8-mer, flanks averaged, mean of 2 arrays, mostly near background
Reference: not given
Direction: higher = stronger binding
Construct (chain): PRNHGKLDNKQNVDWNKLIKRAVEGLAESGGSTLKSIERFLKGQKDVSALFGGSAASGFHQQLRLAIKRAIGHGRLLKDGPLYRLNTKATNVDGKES
Sequence	E-score
CACGTTAG	-0.211
GGATAGAC	-0.0713
ACCATTGC	-0.0309
AGATAAAT	-0.0593
GACCGAAC	0.205
GGCGTAAA	-0.0769
GAAAACCC	-0.0408

Series 2
Target: RNA binding protein fox-1 homolog 2, RRM domain, GST-SBP tag (RBFOX2, Homo sapiens, UniProt O43251-10, residues 100-194)
Technique: RNA Bind-n-Seq
Form: RNA
Sample: in vitro
Concentration: 365 nM
Setting: natural RNA segment, single round, ends assumed
Reference: no-protein control
Direction: higher = stronger binding
Shared flanks, not repeated: GGGAGUUCUACAGUCCGACGAUC … UGGAAUUCUCGGGUGCCAA
Construct (chain): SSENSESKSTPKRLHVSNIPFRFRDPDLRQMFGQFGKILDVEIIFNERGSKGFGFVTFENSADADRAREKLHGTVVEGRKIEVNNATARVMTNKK
Sequence	RBNS enrichment (R)
CUCGUCUCAGAGGCCAGCAAGCUGGGGCCUGUCCGCCACGGUGCCCUGUGCACCUUUGGGCUGCCCUGGCCCCCACUCUCCCGGGCCGCCCACCACAGGCUCUUAAUGGG	0.208
UAGGUAAACCGCUUGCCUUCAUCUUGAGUCGGAAUAUAUUUAAAUAAAUUGUGUUAUCUCUUGCCAAACAUUUUGUUAGUGUUUAUUUAAAAACAAAAUGUUGUUUCUUA	0.774
UGCCACAGACAGCUACCCCCAGAAGGGUCAAUGUUGGGAGUGGUUGUGGCUCUGAGCUGCUCUACAGAGCUUCAGUGUGAGAGGAUCGAGCCAUUGAAAGCUCAUUACCA	0.81
UAACAGAACAGUUCUAAUCCUGCCACGUGUUAUCAUUAUAGAUUUUAUAGUUGCCUUUCUAACUACUUAGCACAGUUUGAGAAUACGUUAAUUGCUAUUUACUAUUUAAA	0.829
ACCAGUGACAAUCUUAUGAAUAUAAUGAAUAAGUAAGCAUAUAGUAGGGUGAUAGAAUACAGAUAGUAGAAACAAAGAGAGGACAGCAAACCUUUUCAGCACUUCUCUCA	0.308

Series 3
Target: Interferon regulatory factor 5, full length, phosphomimetic (IRF5, Homo sapiens, UniProt Q13568-2, residues 1-514, S451D/S453D/S456D/S462D)
Technique: protein-binding microarray
Form: double-stranded DNA, one strand shown
Sample: in vitro
Concentration: 940 nM top
Setting: 60-bp whole probe
Added: salmon DNA 0.4 mg/ml
Reference: random background probes
Direction: higher = stronger binding
Shared flanks, not repeated: GCCTAGCAC … GTGCTAGGTCTTGATTCGCTTGACGCTGCTG
Sequence	fitted relative affinity
GACGATATCCTACTGCTGAC	0.0404 z-score
TTAGGACTGGGTTTCTGTTA	2.04 z-score
TCAGGTTTCAGATGCGTACT	2.3 z-score
GACGGACTCGGTATCGGGAC	1.17 z-score
CCCTATTTAAGGCTAGGCAC	-0.0629 z-score
TCAAATTTCCCACTTTCACT	2.22 z-score

Mixed results
Substance	target	assay	test system	setting	how to read	endpoint	value
PhoQ, residues 284 288 289 292 302 303 AEGLLW	PhoP, residues 12 14 15 18 19 AWHSL (Escherichia coli, UniProt P23836)	Sort-seq, refers to: YFP reporter	E. coli	PhoQ-PhoP variant library, added: 10 µM Mg2+	reference: high Mg2+ state, higher = stronger signaling	fold induction	1.9

Repeated from above (series 1):
Sequence	E-score
GACCGAAC	0.205
GGCGTAAA	-0.0769
